Published values gathered from unrelated publications.
Compare with care: the assays were run in different laboratories.
GZF1: GZF1 250-711 (Homo sapiens, UniProt Q9H116)
Sequence of UniProt Q9H116 (whole entry, unmodified, looked up): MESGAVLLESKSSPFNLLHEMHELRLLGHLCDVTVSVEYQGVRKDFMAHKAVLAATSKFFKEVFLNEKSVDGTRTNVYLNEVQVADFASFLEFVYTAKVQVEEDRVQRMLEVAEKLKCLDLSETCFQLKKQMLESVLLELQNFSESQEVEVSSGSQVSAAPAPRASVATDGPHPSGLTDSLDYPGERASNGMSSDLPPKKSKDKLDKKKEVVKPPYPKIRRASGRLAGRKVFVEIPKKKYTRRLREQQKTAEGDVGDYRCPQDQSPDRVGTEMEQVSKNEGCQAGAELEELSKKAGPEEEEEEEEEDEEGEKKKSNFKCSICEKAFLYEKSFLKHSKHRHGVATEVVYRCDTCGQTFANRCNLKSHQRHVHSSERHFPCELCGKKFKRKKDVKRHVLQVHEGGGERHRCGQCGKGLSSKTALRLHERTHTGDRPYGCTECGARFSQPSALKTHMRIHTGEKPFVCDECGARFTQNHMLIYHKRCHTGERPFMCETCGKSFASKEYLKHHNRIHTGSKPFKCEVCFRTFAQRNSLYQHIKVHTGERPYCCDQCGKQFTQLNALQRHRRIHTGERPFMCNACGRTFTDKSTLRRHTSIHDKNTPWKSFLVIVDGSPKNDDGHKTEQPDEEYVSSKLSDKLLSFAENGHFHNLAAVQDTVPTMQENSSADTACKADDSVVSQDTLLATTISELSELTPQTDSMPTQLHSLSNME
RC3H1: RC3H1 89-407 (Homo sapiens, UniProt Q5TC82)
Sequence of UniProt Q5TC82 (whole entry, looked up): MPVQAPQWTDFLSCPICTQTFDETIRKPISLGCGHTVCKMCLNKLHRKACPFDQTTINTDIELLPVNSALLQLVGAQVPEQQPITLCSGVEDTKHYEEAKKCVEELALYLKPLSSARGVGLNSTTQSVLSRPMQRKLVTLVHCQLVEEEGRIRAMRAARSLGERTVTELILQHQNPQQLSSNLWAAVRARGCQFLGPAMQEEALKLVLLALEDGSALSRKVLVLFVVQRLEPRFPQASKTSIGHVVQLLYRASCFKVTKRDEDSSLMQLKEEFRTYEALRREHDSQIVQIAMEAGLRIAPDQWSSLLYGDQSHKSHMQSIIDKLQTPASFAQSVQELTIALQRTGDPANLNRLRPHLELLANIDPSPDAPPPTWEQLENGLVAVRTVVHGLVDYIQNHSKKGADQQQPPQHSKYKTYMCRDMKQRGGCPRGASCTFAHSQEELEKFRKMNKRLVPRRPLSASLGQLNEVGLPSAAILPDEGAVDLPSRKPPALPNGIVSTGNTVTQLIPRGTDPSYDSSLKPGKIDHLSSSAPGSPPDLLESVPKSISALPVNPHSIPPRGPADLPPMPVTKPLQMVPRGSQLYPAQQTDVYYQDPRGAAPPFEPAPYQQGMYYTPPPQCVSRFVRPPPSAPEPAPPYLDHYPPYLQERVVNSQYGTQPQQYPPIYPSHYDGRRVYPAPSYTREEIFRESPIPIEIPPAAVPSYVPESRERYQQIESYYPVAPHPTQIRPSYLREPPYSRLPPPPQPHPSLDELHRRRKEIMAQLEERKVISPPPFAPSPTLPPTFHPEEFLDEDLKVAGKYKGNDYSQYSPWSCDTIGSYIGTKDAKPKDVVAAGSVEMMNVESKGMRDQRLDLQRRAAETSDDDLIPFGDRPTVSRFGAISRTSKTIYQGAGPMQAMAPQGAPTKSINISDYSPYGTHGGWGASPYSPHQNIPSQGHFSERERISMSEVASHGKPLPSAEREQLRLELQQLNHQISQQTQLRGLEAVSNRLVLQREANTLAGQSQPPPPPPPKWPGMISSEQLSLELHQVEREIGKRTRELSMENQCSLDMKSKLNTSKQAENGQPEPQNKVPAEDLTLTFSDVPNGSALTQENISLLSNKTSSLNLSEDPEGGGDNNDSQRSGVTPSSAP
hutP full length assumed V51I: hutP full length assumed V51I (Bacillus subtilis, UniProt P10943)
CHES-1-like: CHES-1-like 700-785 (Drosophila melanogaster, UniProt Q9W3Q5)
HRS1: HRS1 1-344 (Arabidopsis thaliana, UniProt Q9FX67)
Sequence of UniProt Q9FX67 (whole entry, looked up): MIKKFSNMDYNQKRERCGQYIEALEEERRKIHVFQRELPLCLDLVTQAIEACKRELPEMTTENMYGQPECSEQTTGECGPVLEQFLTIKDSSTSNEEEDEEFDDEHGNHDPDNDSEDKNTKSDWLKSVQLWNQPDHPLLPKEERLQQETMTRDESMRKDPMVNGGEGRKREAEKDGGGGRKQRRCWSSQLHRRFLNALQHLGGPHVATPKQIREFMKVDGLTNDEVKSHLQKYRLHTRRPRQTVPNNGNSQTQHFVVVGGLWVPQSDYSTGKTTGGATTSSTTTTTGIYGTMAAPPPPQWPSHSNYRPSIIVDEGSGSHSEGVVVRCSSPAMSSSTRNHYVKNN
T1: loqs Loqs-PD, 1-359 (Drosophila melanogaster); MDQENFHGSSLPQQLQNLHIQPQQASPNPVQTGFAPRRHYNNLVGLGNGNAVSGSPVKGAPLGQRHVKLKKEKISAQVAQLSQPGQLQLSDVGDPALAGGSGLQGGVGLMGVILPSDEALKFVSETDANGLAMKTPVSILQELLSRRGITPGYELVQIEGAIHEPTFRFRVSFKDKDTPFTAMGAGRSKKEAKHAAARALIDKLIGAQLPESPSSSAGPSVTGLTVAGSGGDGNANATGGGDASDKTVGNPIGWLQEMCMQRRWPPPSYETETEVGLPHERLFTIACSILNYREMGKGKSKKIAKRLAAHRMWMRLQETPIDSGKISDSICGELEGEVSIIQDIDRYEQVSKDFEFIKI
Sequence of UniProt P14866 (whole entry, looked up): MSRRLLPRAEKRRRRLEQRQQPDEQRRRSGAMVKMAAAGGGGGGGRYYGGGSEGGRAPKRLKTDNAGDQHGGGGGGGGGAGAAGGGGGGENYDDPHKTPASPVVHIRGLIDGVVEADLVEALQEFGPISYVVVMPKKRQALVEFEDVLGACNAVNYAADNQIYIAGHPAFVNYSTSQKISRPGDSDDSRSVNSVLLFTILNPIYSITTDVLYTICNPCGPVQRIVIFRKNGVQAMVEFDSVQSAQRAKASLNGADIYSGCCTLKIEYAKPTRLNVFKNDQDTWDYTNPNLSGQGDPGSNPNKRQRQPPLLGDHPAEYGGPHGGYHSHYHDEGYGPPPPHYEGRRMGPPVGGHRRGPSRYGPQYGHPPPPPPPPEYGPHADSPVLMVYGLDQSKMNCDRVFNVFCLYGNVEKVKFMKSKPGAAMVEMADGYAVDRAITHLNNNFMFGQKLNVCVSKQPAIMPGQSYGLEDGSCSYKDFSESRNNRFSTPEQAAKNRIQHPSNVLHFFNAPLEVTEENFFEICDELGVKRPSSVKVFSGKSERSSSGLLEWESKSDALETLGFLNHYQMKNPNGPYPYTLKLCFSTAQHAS
Sequence of UniProt Q9NY12 (whole entry, looked up): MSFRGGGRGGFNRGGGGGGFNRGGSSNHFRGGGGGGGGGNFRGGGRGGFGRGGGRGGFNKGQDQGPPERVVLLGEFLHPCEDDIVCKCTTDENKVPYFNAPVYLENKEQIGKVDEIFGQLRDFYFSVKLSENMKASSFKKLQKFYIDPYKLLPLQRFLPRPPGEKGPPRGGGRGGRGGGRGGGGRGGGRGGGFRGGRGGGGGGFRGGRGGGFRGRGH
Sequence of UniProt P30014 (whole entry, looked up): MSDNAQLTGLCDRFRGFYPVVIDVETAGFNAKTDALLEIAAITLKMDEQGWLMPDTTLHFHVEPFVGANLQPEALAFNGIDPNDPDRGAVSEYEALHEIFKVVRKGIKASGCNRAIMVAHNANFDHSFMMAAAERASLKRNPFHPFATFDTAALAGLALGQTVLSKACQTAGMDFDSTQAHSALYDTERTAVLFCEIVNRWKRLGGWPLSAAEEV
Sequence of UniProt P84022 (whole entry, looked up): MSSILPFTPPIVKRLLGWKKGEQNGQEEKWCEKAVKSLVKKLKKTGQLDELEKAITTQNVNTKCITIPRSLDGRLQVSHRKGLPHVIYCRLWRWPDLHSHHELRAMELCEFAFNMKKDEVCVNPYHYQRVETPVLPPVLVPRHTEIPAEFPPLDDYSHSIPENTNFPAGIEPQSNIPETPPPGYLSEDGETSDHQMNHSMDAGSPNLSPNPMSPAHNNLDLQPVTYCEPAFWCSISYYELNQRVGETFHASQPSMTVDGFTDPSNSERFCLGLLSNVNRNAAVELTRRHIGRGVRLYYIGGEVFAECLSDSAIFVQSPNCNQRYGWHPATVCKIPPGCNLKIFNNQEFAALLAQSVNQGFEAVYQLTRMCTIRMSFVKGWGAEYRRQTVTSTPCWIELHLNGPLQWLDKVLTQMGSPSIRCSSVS

| Strand | target | assay | test system | conditions | binding |
| --- | --- | --- | --- | --- | --- |
| CACGCUCAUGCACACACCCACA (ssRNA) | HNRNPL 102-176 (Homo sapiens, UniProt P14866) | EMSA | RNA |  | no binding |
| TATTTGGAATGCGCCGCTGCGAACCCGGCT (dsDNA) | GZF1 | competition | double-stranded DNA, one strand shown |  | no binding |
| RNA 1 ACAUGUUUUCUGUGAAAACGGAG / RNA 2 ACAUGUUUUCUGUGAAAACGGAG (dsRNA; antiparallel duplex, unpaired middle) | RC3H1 | crystal structure | double-stranded RNA |  | binds |
| GGGAACAGCCCAAUCAUCUAUCACGAUAGGGGGCUAUGCGUGAAAACAGAAGUUCACAGCAUAGCUCCUUUUUGUAUGGGCGCUUUACC (structured RNA) | hutP full length assumed V51I | filter binding | folded RNA | added: L-His, Mg2+ | no binding |
| GATCTCTGCGTGCGCGCTCATAGCCTACTG (dsDNA) | GZF1 | competition | double-stranded DNA, one strand shown |  | no binding |
| GGGAACAGCCCAAUCAUCUAUCACGAAUCGGGGCUAUGCGUGAAAACAGAAGUUCACAGCAUAGCUCCUUUUUGUAUGGGCGCUUUACC (structured RNA) | hutP full length assumed V51I | filter binding | folded RNA | added: L-His, Mg2+ | no binding |
| TTCCGGGTTGCCTATTCAGATT (dsDNA) | CHES-1-like | competition | double-stranded DNA, one strand shown | not purified | no binding |
| TATTTGGGGTGCGCCGCTATAGGCCCGGCT (dsDNA) | GZF1 | competition | double-stranded DNA, one strand shown |  | binds |
| TTAAGTTTCGGCATATCTTG (dsDNA) | OsWRKY53 full length assumed (Oryza sativa, UniProt A7BEY7) | EMSA | double-stranded DNA, one strand shown |  | no binding |
| ACAUGUUUUCUGUGAAAACGGAG (structured RNA; hairpin, 3-nt loop) | RC3H1 | gel filtration | folded RNA |  | binds |
| AGGGGATAATGAAGAGAGAGAGAGAGAGAGTG (dsDNA) | HRS1 | EMSA | double-stranded DNA, one strand shown |  | binds |
| TATTTGGAATGCGCCATTATAAACCCGGCT (dsDNA) | GZF1 | competition | double-stranded DNA, one strand shown |  | no binding |
| GGCCCTCTTTAGGGCCTAA (ssDNA) | rnt 1-215 (Escherichia coli, UniProt P30014) | X-ray crystallography | single-stranded DNA | added: Mg2+ | binds |
| GATCTCTGCGTGCATATCTATAGCCTACTG (dsDNA) | GZF1 | competition | double-stranded DNA, one strand shown |  | no binding |
| RNA 1 UAAUACUGUCAGGUAAAGAUGUC / RNA 2 CAUCUUACCGGGCAGCAUUAGA (dsRNA) | T1, loqs Loqs-PD, 1-359 (Drosophila melanogaster) | fluorescence anisotropy | double-stranded RNA |  | binds |
| TTCCGGGTTGTTTATTCAGATT (dsDNA) | CHES-1-like | EMSA | double-stranded DNA, one strand shown | not purified | binds |
| TATTTGGAATGCGTTGCTATAAACCCGGCT (dsDNA) | GZF1 | competition | double-stranded DNA, one strand shown |  | no binding |
| AGGGGGCCGUGGGGUGGGAGCUGGGG (G-quadruplex RNA; G4) | GAR1 (Homo sapiens, UniProt Q9NY12) | EMSA | folded RNA | 100 nM | binds |
| ATAAACCCCAAAACCTAACCGAACCAGAAAGG (dsDNA) | HRS1 | EMSA | double-stranded DNA, one strand shown |  | binds |
| CGCCTGGCGCCAGAGA (dsDNA) | SMAD3 1-145 (Homo sapiens, UniProt P84022) | EMSA | double-stranded DNA, one strand shown |  | binds |
| GATCTCTGCGTGCGCGCTTATAGCCTACTG (dsDNA) | GZF1 | competition | double-stranded DNA, one strand shown |  | no binding |
| TTAATGTTGTTTCGTTTCCGCCA (dsDNA) | CHES-1-like | competition | double-stranded DNA, one strand shown | not purified | no binding |
| GGAGTATCCGAACCCAAACCGAAAAGTGAATT (dsDNA) | HRS1 | EMSA | double-stranded DNA, one strand shown |  | binds |
| GATCTCTGCGTGCGCATCTATAGCCTACTG (dsDNA) | GZF1 | competition | double-stranded DNA, one strand shown |  | binds |
| DNA 1 ATGTAGACTATAGTCGACA / DNA 2 TTGTCGACTATAGTCTACA (dsDNA; 1 nt 5' overhang) | Regulatory protein 1-79 (Enterobacter sp., UniProt Q8GGH0) | X-ray crystallography | double-stranded DNA |  | binds |

Excerpt of the above:
| Strand | target | assay | test system | conditions | binding |
| --- | --- | --- | --- | --- | --- |
| RNA 1 UAAUACUGUCAGGUAAAGAUGUC / RNA 2 CAUCUUACCGGGCAGCAUUAGA (dsRNA) | T1, loqs Loqs-PD, 1-359 (Drosophila melanogaster) | fluorescence anisotropy | double-stranded RNA |  | binds |
| TTCCGGGTTGTTTATTCAGATT (dsDNA) | CHES-1-like | EMSA | double-stranded DNA, one strand shown | not purified | binds |
| TATTTGGAATGCGTTGCTATAAACCCGGCT (dsDNA) | GZF1 | competition | double-stranded DNA, one strand shown |  | no binding |
